Assay results gathered from unrelated publications.
Compare with care: the assays were run in different laboratories. Several values in a cell are separate wells, animals, samples, runs or records. Numbers after ± are the reported error.
TDP1: Tyrosyl-DNA phosphodiesterase 1 (TDP1, Homo sapiens, UniProt Q9NUW8)
Chain of UniProt Q9NUW8 (whole entry, looked up): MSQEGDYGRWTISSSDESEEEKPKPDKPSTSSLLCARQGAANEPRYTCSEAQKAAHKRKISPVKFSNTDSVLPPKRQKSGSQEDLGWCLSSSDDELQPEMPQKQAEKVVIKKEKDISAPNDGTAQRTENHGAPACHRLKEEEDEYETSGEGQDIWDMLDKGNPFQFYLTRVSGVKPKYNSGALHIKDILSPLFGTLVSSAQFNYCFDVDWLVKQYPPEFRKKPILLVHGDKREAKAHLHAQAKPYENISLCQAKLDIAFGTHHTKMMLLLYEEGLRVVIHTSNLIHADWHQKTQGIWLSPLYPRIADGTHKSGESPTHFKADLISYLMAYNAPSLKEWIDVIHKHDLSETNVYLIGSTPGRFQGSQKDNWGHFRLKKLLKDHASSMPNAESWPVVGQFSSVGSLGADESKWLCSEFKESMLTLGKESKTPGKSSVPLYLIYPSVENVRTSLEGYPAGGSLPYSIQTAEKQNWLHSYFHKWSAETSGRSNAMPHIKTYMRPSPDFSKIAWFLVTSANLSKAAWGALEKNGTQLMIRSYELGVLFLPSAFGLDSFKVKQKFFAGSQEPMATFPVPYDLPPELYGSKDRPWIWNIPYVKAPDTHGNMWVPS

CC(C)c1ccc(N(C)c2ccc3c(c2)OCC[C@H]3CNc2cnccc2C(=O)O)cc1  IC50 (CAL-27; cell viability; 7 days): ≥ 10000 nM
Cc1ccc(-n2cc(CSc3nc4ccccc4n3Cc3cn(-c4ccc(C)cc4)nn3)nn2)cc1  viability (Caco-2; MTT; 15.6 ppm): 41.1%
CN(C)C(=O)c1cccc(N2Cc3cn(Cc4ccc(F)cc4Cl)nc3C2)c1  IC50 (HEK293 expressing GluA1 and GluA2; glutamate excitotoxic cell death, CellTox Green; together with: glutamate): 11 nM
CNS(=O)(=O)Nc1nccc(Cc2c(C)c3ccc(Oc4ncccc4F)cc3oc2=O)c1F  IC50 (NCI-H1944; cell viability; 7 days): 4.45 nM
CCCC(CCC)C(=O)OCc1cn(-c2cc3ccccc3oc2=O)nn1  growth percentage (UACC-257; NCI60 single-dose screen; 10 µM): 89.8%
CN1CCCNC(=O)c2cccc(c2)C(=O)NCCCN(C)CCCNc2cccc3c2C(=O)c2cccc(c2C3=O)NCCC1  log2 fold change (SAS; RNA-Seq, item: RBM39 mRNA; 1 µM, 6 h; baseline: untreated cells): -0.909
Cc1ncsc1-c1ccc(C(C)NC(=O)C2CC(O)CN2C(=O)C(NC(=O)CCCCCCCCCCN2CCCC(Nc3ncc(Cl)c(Nc4ccccc4S(=O)(=O)C(C)C)n3)C2)C(C)(C)C)cc1 (stereo not drawn)  log2 fold change (22Rv1; RNA-seq, item: ZNF561 mRNA; concentration not given; baseline: DMSO): -1.11
COc1cccc(/C=C/C(=O)Nc2cc(Nc3nccc(-c4cn(C)c5ccccc45)n3)c(OC)cc2N(C)CCN(C)C)c1  inhibition (NCI-H1975; cell growth or viability, MTT; 0.5 µM, 72 h): 67.8%
COc1cc(C=NOCc2ccc3nc(-c4ccccc4)c(Nc4ccc(C(=O)O)cc4)n3c2)cc(I)c1OC(C)=O  inhibition (TDP1; enzyme activity, inhibitor; 100 µM, unpurified compound): 3.5%
CCc1n(CC(=O)O[C@@H]2C[C@H](C)CC[C@H]2C(C)C)c2ccccc2[n+]1C  mRNA level (HTS cells (mouse); gene microarray, item: COX6A2; 1 µM, 24 h, unit not given; baseline: untreated): 7.43
CCOC(=O)c1ccc(-n2c(N)c(C#N)c(SC)c(C#N)c2=O)cc1  viability (HepG2; cell growth or viability, MTT; 3.125 µM, 24 h): 99.8%
Cn1ncc2cc(-c3cncc(Cl)c3N3CCC4(CCNC4=O)CC3)ccc21  fold change in expression (LS174T; microarray, item: SLC6A4; concentration not given, 24 h, gene set SERT; baseline: untreated cells): 2.15
COCCCCCNc1nc(NCCCCCCN(C)C)c2cc(NC(=O)/C=C/CN(C)C)ccc2n1  viability (MCF7; CellTiter-Glo; 3.125 µM, 24 h, unit not given; baseline: DMSO-treated cells): 1.06 and 1.02 and 0.97
Cc1c(Cl)cccc1Nc1ccccc1C(=O)[Se]CC(=O)Nc1cccc(C(F)(F)F)c1  mean TGI (NCI60 CNS subpanel; NCI60 five-dose screen): 3.47 µM
O=C(N1CCCC1)n1cc(-c2ccc(-c3ccccc3)cc2)nn1  SILAC ratio (mouse T cells; N-terminal labelling proteomics, item: NDUFV2 N-terminal peptides; 0.001 µM, 6 h; baseline: DMSO): 1.12
C=CC(=O)N1CCCC(n2c(=O)c3ncccc3n(Cc3ccc(Oc4ccccc4)cc3)c2=O)C1 (stereo not drawn)  log2 fold change (Rec1; item: CD69; concentration not given; baseline: untreated): 0.325
COc1ccccc1-c1ccncc1C(=O)Nc1ccc(OCc2ccc(Cl)cc2)nn1  colony survival (DLD-1 parental (BRCA2 WT); 10 µM, single run; baseline: untreated): 98% and 99% and 97.5%
CCN(CC)CC(=O)Nc1cccc(-n2cc(-c3ccc4ccc(-c5cn(-c6cccc(NC(=O)CN(CC)CC)c6)nn5)cc4c3)nn2)c1  fold regulation (RCC4; PCR angiogenesis array, item: FGF1; 5 x IC50, 4 h, normoxia; baseline: untreated): -1.13
CC1(C)CC[C@@]2(CO)C(=C3C=C[C@@H]4[C@@]5(C)CC[C@H](O)[C@@](C)(CO)[C@@H]5CC[C@@]4(C)[C@]3(C)C[C@@H]2O)C1  protein level (HepG2; Western blot, item: PPAR-α; 7.5 µM, unit not given, together with: ethanol; baseline: β-actin): 2.22 and 2.19 and 1.23
O=C(O)c1ccc(Nc2c(-c3ccccc3)nc3ccc(CON=CC4CCCCN4C(=O)OCc4ccccc4)cn23)cc1 (stereo not drawn)  inhibition (TDP1; enzyme activity, inhibitor; 100 µM, unpurified compound): 6.5%
COc1cc(N(C)CCN(C)C)c(NC(=O)/C=C/c2cc(F)cc(Cl)c2)cc1Nc1nccc(-c2cn(C)c3ccccc23)n1  inhibition (NCI-H1975; cell growth or viability, MTT; 0.5 µM, 72 h): 71.5%
CO[C@@H]1[C@@H](OC(N)=O)[C@@H](O)[C@H](Oc2ccc3c(O)c(NC(=O)c4ccc(O)c(CC=C(C)C)c4)c(=O)oc3c2C)OC1(C)C  colony count (DLD-1 BRCA2-/-; 50 µM, replicate 1): 8.5
CN1CCC(N[C@@H]2CCc3[nH]c4c(C(N)=O)ccc(-c5ccccc5Cl)c4c3C2)CC1  IC50 (K562/DOX, doxorubicin-resistant; cell growth, CellTiter-Glo; 96 h): 30.5 nM
COC(=O)C1=C(C)Oc2cc(OC)ccc2C1C(C(C)=O)C(=O)OC (stereo not drawn)  mean lipid content (3T3-L1 preadipocytes; adipogenesis, Oil Red O staining; IC20, 14 days): 0.719 OD492
O=C(C[Se]C(=O)c1cc2ccccc2[nH]1)Nc1cccc(C(F)(F)F)c1  mean growth percent (NCI60 melanoma subpanel; cell growth; 10 µM, 48 h, one-dose): -76.6%
C=CC(=O)Nc1cc(Nc2nccc(-c3c(-c4cc(C)cc(C)c4)n(C)c4ccccc34)n2)c(OC)cc1N(C)CCN(C)C  inhibition (NCI-H1975; cell growth or viability, MTT; 0.5 µM, 72 h): 65.5%
O=C(C[Se]C(=O)c1cccnc1Nc1cccc(C(F)(F)F)c1)Nc1cccc(C(F)(F)F)c1  mean TGI (NCI60 CNS subpanel; NCI60 five-dose screen): 3.82 µM
O=C(NCc1cc(F)cc(F)c1)[C@@]1(O)CCN(c2ccc3[nH]ccc3c2)C1=O  efficacy (HT-1080; colony formation, soft agar clonogenic; concentration not given): 52%
COc1cccc(OC)c1-c1cc(C(=O)NC2(C(=O)O)C3CC4CC(C3)CC2C4)nn1-c1ccc(C(=O)N(C)CCCN(C)C(=O)[C@H](CCCCNC(=O)[C@H](CC(C)C)NC(=O)C2OC2C(=O)O)NC(=O)CN2CCN(CC(=O)[O-])CCN(CC(=O)[O-])CCN(CC(=O)[O-])CC2)cc1C(C)C.[177Lu+3] (mixture of isomers)  internalized fraction (HT-29; 240 min, 4 h; baseline: added activity): 5.41 ± 0.51%
CCC(=CCc1c(O)cc2c(c1O)C(=O)CC(c1ccc(O)cc1)O2)CC (stereo not drawn)  inhibition (HeLa; cell growth or viability, MTT; 12.5 µM, 48 h): 52.2%
Cc1ccc(C(=O)/C=C/c2ccccc2)s1  growth inhibition (HOP-92; SRB; 10 µM): < 0%
CC1(C)CC(=O)C2=C(C1)Oc1ccc3ccccc3c1C2c1c[nH]c2ccccc12 (stereo not drawn)  lipid content (3T3-L1 preadipocytes; adipogenesis, Oil Red O staining; IC20, 14 days, single replicate): 1.07 OD492
C=CC(=O)Nc1cc(Nc2nccc(-c3c(-c4cccc(OC)c4)n(C)c4ccccc34)n2)c(OC)cc1N(C)CCN(C)C  inhibition (NCI-H1975; cell growth or viability, MTT; 0.5 µM, 72 h): 77%
O=C(C[Se]C(=O)c1ccccc1Nc1cccc(C(F)(F)F)c1)Nc1cccc(C(F)(F)F)c1  mean growth percent (NCI60 melanoma subpanel; cell growth; 10 µM, 48 h, one-dose): -88.9%
CCCC[N+]1=c2cc3c4cc2[O][Mn-2]1(=[C]=O)(=[C]=O)(=[C]=O)[n+]1ccc(cc1)C(=O)Nc1ccccc1NC(=O)c1cc[n+](cc1)[Mn-2](=[C]=O)(=[C]=O)(=[C]=O)([O]3)[N+]=4CCCC  viability reduction (HCT-15; MTT; 50 µM, 48 h, photolysed compound): 90%
C=CC(=O)Nc1cc(Nc2nccc(-c3c(-c4ccc(-c5cccc6ccccc56)cc4)n(C)c4ccccc34)n2)c(OC)cc1N(C)CCN(C)C  inhibition (NCI-H1975; cell growth or viability, MTT; 0.5 µM, 72 h): 58.3%
C=C(NC(=O)c1csc(-c2cccnc2)n1)C(=O)NC(=C)C(=O)OC  EC50 (H-MESO-1; cell viability, crystal violet; 24 h exposure, 48 h total): 5.1 µM
CC(=O)Oc1ccccc1C(=O)[Se]CC(=O)Nc1cccc(C(F)(F)F)c1  GI50 (NCI60 melanoma subpanel; cell growth, inhibitor; five-dose): 2150 nM
CN(C)C(=O)c1cccc(N2Cc3cn(Cc4ccc(F)cc4F)nc3C2)c1  IC50 (HEK293 expressing GluA1 and GluA2; glutamate excitotoxic cell death, CellTox Green; together with: glutamate): 3 nM
CC(C)Cc1ccc(C(C)C(=O)[Se]CC(=O)Nc2cccc(C(F)(F)F)c2)cc1 (stereo not drawn)  mean growth percent (NCI60 melanoma subpanel; cell growth; 10 µM, 48 h, one-dose): -82.5%
Cc1ncsc1-c1ccc([C@H](C)NC(=O)[C@@H]2C[C@@H](O)CN2C(=O)[C@@H](NC(=O)[C@H]2C[C@H](C(=O)N3CCC(c4cc(Nc5cc(C#N)ccn5)nc(N5CCC(F)(F)C5)c4)CC3)C2)C(C)(C)C)cc1  protein level log2 fold change (CAL-33 with inducible wild-type LZK; MS proteomics, item: SMG6; 500 nM, 24 h, together with: doxycycline; baseline: DMSO): 0.284
COc1ccc2c(c1)c(CC(=O)[Se]CC(=O)Nc1cccc(C(F)(F)F)c1)c(C)n2C(=O)c1ccc(Cl)cc1  mean TGI (NCI60 melanoma subpanel; total growth inhibition, inhibitor; five-dose): 4.39 µM
COc1cc(N(C)CCN(C)C)c(NC(=O)/C=C/c2ccc(C(C)(C)C)cc2)cc1Nc1nccc(-c2cn(C)c3ccccc23)n1  inhibition (NCI-H1975; cell growth or viability, MTT; 0.5 µM, 72 h): 67.3%
O=C(C[Se]C(=O)c1cc2ccccc2s1)Nc1cccc(C(F)(F)F)c1  mean growth percent (NCI60 melanoma subpanel; cell growth; 10 µM, 48 h, one-dose): -80.6%
O=C(Nc1nnc2c1c(-c1ccc(Cl)cc1)nc1sc(=Cc3ccco3)c(=O)n12)c1ccccc1 (mixture of isomers)  cell growth (UACC-257; SRB; 10 µM, NCI60 single-dose screen; baseline: untreated): 92.4%

Excerpt of the above:
C=C(NC(=O)c1csc(-c2cccnc2)n1)C(=O)NC(=C)C(=O)OC  EC50 (H-MESO-1; cell viability, crystal violet; 24 h exposure, 48 h total): 5.1 µM
O=C(N1CCCC1)n1cc(-c2ccc(-c3ccccc3)cc2)nn1  SILAC ratio (mouse T cells; N-terminal labelling proteomics, item: NDUFV2 N-terminal peptides; 0.001 µM, 6 h; baseline: DMSO): 1.12
CNS(=O)(=O)Nc1nccc(Cc2c(C)c3ccc(Oc4ncccc4F)cc3oc2=O)c1F  IC50 (NCI-H1944; cell viability; 7 days): 4.45 nM
CC(C)c1ccc(N(C)c2ccc3c(c2)OCC[C@H]3CNc2cnccc2C(=O)O)cc1  IC50 (CAL-27; cell viability; 7 days): ≥ 10000 nM
Cc1ncsc1-c1ccc([C@H](C)NC(=O)[C@@H]2C[C@@H](O)CN2C(=O)[C@@H](NC(=O)[C@H]2C[C@H](C(=O)N3CCC(c4cc(Nc5cc(C#N)ccn5)nc(N5CCC(F)(F)C5)c4)CC3)C2)C(C)(C)C)cc1  protein level log2 fold change (CAL-33 with inducible wild-type LZK; MS proteomics, item: SMG6; 500 nM, 24 h, together with: doxycycline; baseline: DMSO): 0.284
CCCC[N+]1=c2cc3c4cc2[O][Mn-2]1(=[C]=O)(=[C]=O)(=[C]=O)[n+]1ccc(cc1)C(=O)Nc1ccccc1NC(=O)c1cc[n+](cc1)[Mn-2](=[C]=O)(=[C]=O)(=[C]=O)([O]3)[N+]=4CCCC  viability reduction (HCT-15; MTT; 50 µM, 48 h, photolysed compound): 90%
